Results gathered from unrelated publications.
A part holds a random share of what one study measured.

Set 1
Target: RING finger protein unkempt homolog, zinc fingers 1-6, GST-SBP tag (UNK, Homo sapiens, UniProt Q9C0B0, residues 30-357)
Chain of UniProt Q9C0B0 (30-357, looked up): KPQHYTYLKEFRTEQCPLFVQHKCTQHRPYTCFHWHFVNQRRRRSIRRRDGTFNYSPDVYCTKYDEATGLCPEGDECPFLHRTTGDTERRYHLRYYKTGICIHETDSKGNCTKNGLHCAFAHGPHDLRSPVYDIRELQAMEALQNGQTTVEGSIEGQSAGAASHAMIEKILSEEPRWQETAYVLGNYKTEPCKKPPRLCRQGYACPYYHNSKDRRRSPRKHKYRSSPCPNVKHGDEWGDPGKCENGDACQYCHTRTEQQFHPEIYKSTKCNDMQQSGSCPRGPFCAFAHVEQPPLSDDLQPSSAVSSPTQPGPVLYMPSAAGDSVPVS
Technique: RNA Bind-n-Seq
Molecule type: RNA
Medium: in vitro
Tested at: not given
Notes: RNA with constant flanks, human-mouse chimeric sites, ends assumed
Baseline: input RNA pool
Reading: higher = stronger binding
Measurement: bound/input enrichment
Constant ends, left off below: GGGAGUUCUACAGUCCGACGAUC … CAACAGAGGAUUGAGCAUCA
Oligonucleotide = CAGCCUCAGAGCCCAGACUUCCUGGAUAUUACCAACCCUAAAGCGGUAUUAGAAAAUGCAUUGAGAAACUUCGCCUGUCUGACCACCGGAGAUGUGAUUGCUAUCAACUACAAUGAGAAG; value = 0.422 ratio
Oligonucleotide = AAGCAACGCAAACUUGAAACAAUUCGUUAUCUUGCAGCCUCAGUGUUCACUUGCUUGGCGAUAGCAUAUUGGGAUUUUAGGUUCUGGAAGGAGAACUGACGAUGAUGCUGCCGCUGCUGC; value = 0.59 ratio
Oligonucleotide = CAGCCUCAGAGCCCAGACUUCCUGGAUAUUACCAACCCUAAAGCGGUAUUAGAAAAUGCAUUGAGAAACUUCGCCUGUCUGACCACCGGAGAUGUGAUUGCUAUCAACUAUAAUGAAAAG; value = 0.536 ratio
Oligonucleotide = AAUGUGGAGUUGAGUUCGCUGGCCCGGCUUCCCAGCUUGAAUAAACUCCGGAAGUUGGAACUUAGUGACAAUAUAAUUUCUGGAGGCUUGGAAGUCCUGGCAGAGAAAUGUCCAAAUCUU; value = 0.407 ratio
Oligonucleotide = GAAUCCUACUCAGGCGGAUUUUGCAACACCAAGCUCACAGCAGCAGCUCCAUAGUCACAGUAGGGUAGUUUUGGGGCAAUAUUGCCAGGGUUUUAUUCACAUGCAGGUUUGGAAAAUGUA; value = 1.22 ratio
Oligonucleotide = AUGGAGAAGGAUUCUCUGCCCCGCUUUGUGCGCUCUGAGUUUUAUCAGGAGCUAAUCAAGUAGUCAUUUAGCCAGGCUUCCAAAAGUUGCCCUGUGAGUUGAGUUACAUCCUUUGUAGCA; value = 1.09 ratio
Oligonucleotide = CUGUGUGUGCUGAAUAAUGAUUUGUGAAAGAAGUUUUUCCAAGCUGUAACCCAUGCUGUUAUUAUAGUUGCUGCAAAAUGUUCUUCCUGAUAUUGAUGUUUGUUUACAACUGAAGGUCUC; value = 0.189 ratio
Oligonucleotide = AUGGAGAAGGAUUCUCUGCCCCGCUUUGUGCGCUCUGAGUUUUAUCAGGAGCUAAUCAAGUAGUCAUCUGGUCAGGCUUCCAAAAGUUCCUGUGAGUGUUGAGUUACAUCCUUUGUAGCA; value = 0.394 ratio

Set 2
Target: Prothrombin, mature alpha-thrombin (F2, Homo sapiens, UniProt P00734)
Technique: aptamer microarray, sandwich
Molecule type: DNA with 2'F-ANA
Medium: in vitro
Tested at: 200 nM
Notes: whole 15-mer aptamer, many near background
Added: Cy3 exosite-II aptamer, 400 nM
Reading: higher = stronger binding
Measurement: mean fluorescence intensity
Oligonucleotide: GGTTGGTGTGGTTGG
Modification = 2'F-ANA at 2 4 7 9 10; value = 94.3 a.u.
Modification = 2'F-ANA at 1 2 4 5 9 11 12 13; value = 66.2 a.u.
Modification = 2'F-ANA at 1 2 3 6 8 11; value = 245 a.u.
Modification = 2'F-ANA at 1 2 4 6 11 12 14; value = 56 a.u.
Modification = 2'F-ANA at 2 4 5 7 9 11; value = 59.3 a.u.
Modification = 2'F-ANA at 2 5 9 11 13 14 15; value = 47.1 a.u.
Modification = 2'F-ANA at 1 5 7 9 11 14 15; value = 47.1 a.u.
Modification = 2'F-ANA at 8 9 10 11 12 15; value = 172 a.u.

Further values, each from its own experiment
NUP58: NUP58 (Homo sapiens, UniProt Q9BVL2)
Molecule = NUP98 (Homo sapiens, UniProt P52948); target or system = RRP1B (Homo sapiens, UniProt Q14684); assay = cross-linking MS; system = cell fractions; conditions = added: DSSO; measurement = cross-linked residues; value = Y802 to T685
Molecule = CCCN(c1nc2nc(C)c(Cl)c(C)n2n1)S(=O)(=O)c1ccccc1; system = human, microsomes or S9; conditions = 2 µM, 0.5 h; measurement = remaining compound; value = 40.7%
Molecule = TMEM209 (Homo sapiens, UniProt Q96SK2); target or system = NUP58; assay = cross-linking MS; conditions = hits only; measurement = interaction screen; value = cross-linked
Molecule = NUP62 (Homo sapiens, UniProt P37198); target or system = NUP58; assay = cross-linking MS; conditions = hits only; measurement = interaction screen; value = cross-linked
Molecule = DNAAF19 (Homo sapiens, UniProt Q8IW40); target or system = NOP58 (Homo sapiens, UniProt Q9Y2X3); assay = cross-linking MS; system = cell fractions; conditions = added: DMTMM; measurement = cross-linked residues; value = K33 to E82

Excerpt of the above (set 1):
Oligonucleotide = CAGCCUCAGAGCCCAGACUUCCUGGAUAUUACCAACCCUAAAGCGGUAUUAGAAAAUGCAUUGAGAAACUUCGCCUGUCUGACCACCGGAGAUGUGAUUGCUAUCAACUACAAUGAGAAG; value = 0.422 ratio
Oligonucleotide = AAGCAACGCAAACUUGAAACAAUUCGUUAUCUUGCAGCCUCAGUGUUCACUUGCUUGGCGAUAGCAUAUUGGGAUUUUAGGUUCUGGAAGGAGAACUGACGAUGAUGCUGCCGCUGCUGC; value = 0.59 ratio
